Measured values collected from several papers.
Parts stem from different laboratories: compare values within a part only.
Chain of UniProt P51812 (whole entry, looked up): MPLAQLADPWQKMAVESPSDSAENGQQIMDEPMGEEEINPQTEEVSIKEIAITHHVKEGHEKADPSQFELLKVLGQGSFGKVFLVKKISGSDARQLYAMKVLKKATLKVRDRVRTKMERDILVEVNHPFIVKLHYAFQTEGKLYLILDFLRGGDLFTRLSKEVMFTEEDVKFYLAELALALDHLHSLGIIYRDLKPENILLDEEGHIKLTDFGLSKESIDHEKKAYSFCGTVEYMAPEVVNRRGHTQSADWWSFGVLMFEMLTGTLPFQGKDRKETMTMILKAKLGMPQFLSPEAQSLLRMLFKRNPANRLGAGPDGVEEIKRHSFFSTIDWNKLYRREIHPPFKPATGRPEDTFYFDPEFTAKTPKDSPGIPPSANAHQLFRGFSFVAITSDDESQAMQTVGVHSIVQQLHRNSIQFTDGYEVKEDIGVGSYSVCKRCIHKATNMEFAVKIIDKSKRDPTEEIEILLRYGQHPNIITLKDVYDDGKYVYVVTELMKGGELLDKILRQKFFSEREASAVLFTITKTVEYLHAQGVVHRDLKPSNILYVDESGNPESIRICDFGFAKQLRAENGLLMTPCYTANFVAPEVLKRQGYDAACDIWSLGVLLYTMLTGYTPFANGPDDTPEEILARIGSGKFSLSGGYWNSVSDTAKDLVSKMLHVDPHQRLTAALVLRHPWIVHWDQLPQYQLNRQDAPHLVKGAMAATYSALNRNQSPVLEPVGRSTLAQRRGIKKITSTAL
Chain of UniProt Q13163 (whole entry, looked up): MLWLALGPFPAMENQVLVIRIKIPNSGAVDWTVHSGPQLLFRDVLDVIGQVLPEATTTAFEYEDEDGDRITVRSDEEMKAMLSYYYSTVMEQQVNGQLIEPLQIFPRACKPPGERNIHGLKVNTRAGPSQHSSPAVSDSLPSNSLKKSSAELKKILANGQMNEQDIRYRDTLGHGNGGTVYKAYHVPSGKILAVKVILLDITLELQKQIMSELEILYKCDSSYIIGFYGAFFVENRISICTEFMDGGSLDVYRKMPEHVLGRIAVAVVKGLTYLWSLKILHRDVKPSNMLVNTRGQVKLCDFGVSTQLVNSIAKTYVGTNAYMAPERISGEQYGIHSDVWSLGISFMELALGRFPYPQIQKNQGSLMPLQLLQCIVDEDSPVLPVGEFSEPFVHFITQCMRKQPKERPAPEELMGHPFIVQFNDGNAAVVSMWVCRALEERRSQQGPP
Chain of UniProt Q9P289 (whole entry, looked up): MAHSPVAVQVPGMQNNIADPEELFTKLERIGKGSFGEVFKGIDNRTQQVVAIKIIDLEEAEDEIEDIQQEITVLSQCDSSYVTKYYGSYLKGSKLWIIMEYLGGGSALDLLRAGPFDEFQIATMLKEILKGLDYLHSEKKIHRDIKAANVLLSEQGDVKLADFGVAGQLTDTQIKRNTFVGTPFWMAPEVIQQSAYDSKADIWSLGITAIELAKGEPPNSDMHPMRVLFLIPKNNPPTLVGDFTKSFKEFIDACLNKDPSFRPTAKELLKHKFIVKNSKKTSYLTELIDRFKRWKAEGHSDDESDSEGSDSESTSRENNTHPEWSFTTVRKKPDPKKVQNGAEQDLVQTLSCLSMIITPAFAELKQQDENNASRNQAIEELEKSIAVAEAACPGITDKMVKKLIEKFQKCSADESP
Chain of UniProt P23458 (whole entry, looked up): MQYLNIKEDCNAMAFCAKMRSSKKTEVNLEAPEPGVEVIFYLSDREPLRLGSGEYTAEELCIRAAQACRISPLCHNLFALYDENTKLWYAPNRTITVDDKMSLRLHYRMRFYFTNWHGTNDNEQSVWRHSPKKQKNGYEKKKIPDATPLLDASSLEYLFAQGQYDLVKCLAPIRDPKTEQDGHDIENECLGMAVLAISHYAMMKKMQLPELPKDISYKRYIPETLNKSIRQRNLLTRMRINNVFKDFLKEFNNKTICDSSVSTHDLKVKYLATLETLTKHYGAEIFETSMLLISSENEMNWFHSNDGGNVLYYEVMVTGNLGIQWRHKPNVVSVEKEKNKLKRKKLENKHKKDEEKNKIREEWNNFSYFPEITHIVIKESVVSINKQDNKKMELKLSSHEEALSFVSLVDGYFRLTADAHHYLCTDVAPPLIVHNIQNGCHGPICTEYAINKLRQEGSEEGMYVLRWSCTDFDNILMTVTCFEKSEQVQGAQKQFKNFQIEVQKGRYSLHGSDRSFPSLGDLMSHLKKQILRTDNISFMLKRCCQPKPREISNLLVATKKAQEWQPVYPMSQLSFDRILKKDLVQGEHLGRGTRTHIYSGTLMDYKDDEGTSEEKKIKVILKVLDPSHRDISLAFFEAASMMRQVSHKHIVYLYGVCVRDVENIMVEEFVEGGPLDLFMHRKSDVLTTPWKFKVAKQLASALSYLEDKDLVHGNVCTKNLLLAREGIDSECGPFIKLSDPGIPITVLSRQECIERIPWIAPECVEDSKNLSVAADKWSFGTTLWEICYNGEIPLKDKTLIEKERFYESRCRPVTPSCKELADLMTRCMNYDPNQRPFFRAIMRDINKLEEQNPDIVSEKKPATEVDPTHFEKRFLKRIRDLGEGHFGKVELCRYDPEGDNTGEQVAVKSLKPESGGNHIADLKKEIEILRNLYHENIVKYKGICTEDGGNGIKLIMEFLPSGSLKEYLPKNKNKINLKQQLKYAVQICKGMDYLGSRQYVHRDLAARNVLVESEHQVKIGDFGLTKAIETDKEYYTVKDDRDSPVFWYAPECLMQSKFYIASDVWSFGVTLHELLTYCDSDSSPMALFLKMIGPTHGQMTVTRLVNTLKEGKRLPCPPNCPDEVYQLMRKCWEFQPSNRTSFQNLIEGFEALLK
Chain of UniProt P49760 (whole entry, looked up): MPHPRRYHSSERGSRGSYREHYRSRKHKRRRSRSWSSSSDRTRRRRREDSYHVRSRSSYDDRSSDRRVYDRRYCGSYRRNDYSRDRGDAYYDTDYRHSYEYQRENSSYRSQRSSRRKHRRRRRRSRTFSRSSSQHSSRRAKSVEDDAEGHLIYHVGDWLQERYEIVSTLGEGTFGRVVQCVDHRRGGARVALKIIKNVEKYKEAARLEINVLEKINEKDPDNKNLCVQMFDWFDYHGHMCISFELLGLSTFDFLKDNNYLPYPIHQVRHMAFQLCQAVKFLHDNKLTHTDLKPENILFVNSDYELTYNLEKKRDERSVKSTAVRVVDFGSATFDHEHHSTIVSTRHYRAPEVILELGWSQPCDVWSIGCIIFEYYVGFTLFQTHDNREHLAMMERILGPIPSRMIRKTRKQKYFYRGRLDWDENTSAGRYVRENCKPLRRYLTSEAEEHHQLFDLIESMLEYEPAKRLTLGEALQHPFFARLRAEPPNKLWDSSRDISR
Chain of UniProt O96017 (whole entry, looked up): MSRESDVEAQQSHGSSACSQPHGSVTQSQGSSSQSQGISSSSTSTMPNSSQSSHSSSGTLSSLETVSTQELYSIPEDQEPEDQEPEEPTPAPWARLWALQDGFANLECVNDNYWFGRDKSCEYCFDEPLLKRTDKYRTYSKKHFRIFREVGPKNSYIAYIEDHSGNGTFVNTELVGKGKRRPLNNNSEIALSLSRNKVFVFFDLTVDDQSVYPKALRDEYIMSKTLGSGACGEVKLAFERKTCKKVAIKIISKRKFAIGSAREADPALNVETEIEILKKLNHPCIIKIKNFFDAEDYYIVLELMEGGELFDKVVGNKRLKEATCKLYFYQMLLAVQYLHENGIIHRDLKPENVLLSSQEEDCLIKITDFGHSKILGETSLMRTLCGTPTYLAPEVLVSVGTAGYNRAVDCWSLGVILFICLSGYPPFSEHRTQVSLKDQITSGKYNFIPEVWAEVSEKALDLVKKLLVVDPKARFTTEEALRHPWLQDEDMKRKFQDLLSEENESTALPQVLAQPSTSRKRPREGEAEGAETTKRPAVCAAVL
Chain of UniProt Q13882 (whole entry, looked up): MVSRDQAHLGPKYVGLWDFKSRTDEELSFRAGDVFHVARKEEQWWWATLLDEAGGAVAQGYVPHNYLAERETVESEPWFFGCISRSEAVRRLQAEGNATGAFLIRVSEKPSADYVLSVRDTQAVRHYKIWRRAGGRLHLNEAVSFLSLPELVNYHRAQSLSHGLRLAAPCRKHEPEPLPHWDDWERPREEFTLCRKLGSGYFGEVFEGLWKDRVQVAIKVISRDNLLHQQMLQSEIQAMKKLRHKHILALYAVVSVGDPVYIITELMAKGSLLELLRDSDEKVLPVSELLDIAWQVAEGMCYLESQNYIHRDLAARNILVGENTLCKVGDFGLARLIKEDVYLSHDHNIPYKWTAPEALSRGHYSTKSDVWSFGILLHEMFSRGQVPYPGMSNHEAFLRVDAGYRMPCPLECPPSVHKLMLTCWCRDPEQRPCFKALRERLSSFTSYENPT

Series 1 — effect on: cell-free assay; method: competition with immobilised ligand; concentration: 1 µM
Compound: C[C@@H](c1cccc(C#N)c1)n1cc(Cl)cc(C(N)=O)c1=N
FLT3 (Homo sapiens, UniProt P36888, D835V) — remaining binding: 95%.
It gave 91% for remaining binding (FGFR1 (Homo sapiens, UniProt P11362)).
The remaining binding was 100% (AKT3 (Homo sapiens, UniProt Q9Y243)).
For Ribosomal protein S6 kinase alpha-3, N-terminal kinase domain (RPS6KA3, Homo sapiens, UniProt P51812): remaining binding read 94%.
It gave 100% for remaining binding (CHEK2 (Homo sapiens, UniProt O96017)).
It gave 100% for remaining binding (PIK3CA (Homo sapiens, UniProt P42336, Q546K)).
For PTK6 (Homo sapiens, UniProt Q13882): remaining binding read 85%.
PLK4 (Homo sapiens, UniProt O00444) — remaining binding: 100%.
The remaining binding was 100% (SNRK (Homo sapiens, UniProt Q9NRH2)).
STK26 (Homo sapiens, UniProt Q9P289) — remaining binding: 68%.
It gave 90% for remaining binding (EPHA8 (Homo sapiens, UniProt P29322)).
Tyrosine-protein kinase ABL1, phosphorylated (ABL1, Homo sapiens, UniProt P00519, H396P) — remaining binding: 76%.
The remaining binding was 88% (MAP2K5 (Homo sapiens, UniProt Q13163)).
The remaining binding was 100% (Non-receptor tyrosine-protein kinase TYK2, JH1 (TYK2, Homo sapiens, UniProt P29597)).

Series 2 — effect on: enzyme activity; mode: inhibitor; concentration: 0.5 µM; relative to: control
SMILES: O=C1Nc2ccc(Br)cc2/C1=C/c1cc2c([nH]1)CCCC2
PAK1 (Homo sapiens, UniProt Q13153) — remaining activity: 95.7%.
The remaining activity was 88.6% (CLK2 (Homo sapiens, UniProt P49760)).
JAK1 (Homo sapiens, UniProt P23458) — remaining activity: 99.3%.
The remaining activity was 80.9% (RPS6KA3 (Homo sapiens, UniProt P51812)).
For CAMK1 (Homo sapiens, UniProt Q14012): remaining activity read 98.4%.
For CLK1 (Homo sapiens, UniProt P49759): remaining activity read 97.2%.
The remaining activity was 101% (SGK2 (Homo sapiens, UniProt Q9HBY8)).
For EPHA6 (Homo sapiens, UniProt Q9UF33): remaining activity read 89.2%.
It gave 92.7% for remaining activity (SIK2 (Homo sapiens, UniProt Q9H0K1)).
CAMKK1 (Homo sapiens, UniProt Q8N5S9) — remaining activity: 69.6%.
The remaining activity was 87.7% (MAP3K20 (Homo sapiens, UniProt Q9NYL2)).
The remaining activity was 98.3% (SRPK1 (Homo sapiens, UniProt Q96SB4)).
The remaining activity was 98.4% (PRKCQ (Homo sapiens, UniProt Q04759)).
For Cyclin-dependent kinase 2, with cyclin E (CDK2, Homo sapiens, UniProt P24941): remaining activity read 96%.
For PAK6 (Homo sapiens, UniProt Q9NQU5): remaining activity read 89.8%.
The remaining activity was 73.4% (FLT1 (Homo sapiens, UniProt P17948)).

Series 3 — method: RNA Bind-n-Seq; form: RNA; matrix: in vitro; concentration: 200 nM; setting: whole 134-nt RNA, ends assumed; together with: 150 mM KCl; relative to: input library; reading: higher = stronger binding
Target: Ras GTPase-activating protein-binding protein 1, full length (G3BP1, Homo sapiens, UniProt Q13283)
Chain of UniProt Q13283 (whole entry, looked up): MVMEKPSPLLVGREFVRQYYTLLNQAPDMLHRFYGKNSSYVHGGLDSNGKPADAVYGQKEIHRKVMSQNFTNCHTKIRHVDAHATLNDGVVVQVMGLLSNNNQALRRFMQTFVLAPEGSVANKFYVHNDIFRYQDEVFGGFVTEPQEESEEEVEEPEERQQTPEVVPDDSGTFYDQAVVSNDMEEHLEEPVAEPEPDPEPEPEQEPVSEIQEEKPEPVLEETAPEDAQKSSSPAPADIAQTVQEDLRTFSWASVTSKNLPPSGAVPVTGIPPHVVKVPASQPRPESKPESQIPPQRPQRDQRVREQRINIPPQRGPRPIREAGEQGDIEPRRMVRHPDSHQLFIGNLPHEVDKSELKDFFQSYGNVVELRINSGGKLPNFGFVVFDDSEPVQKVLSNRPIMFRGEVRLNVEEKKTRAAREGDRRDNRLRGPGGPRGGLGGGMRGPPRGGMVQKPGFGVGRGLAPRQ
Constant ends, left off below: GGGAGUUCUACAGUCCGACGAUC … UGGAAUUCUCGGGUGUCAAGG
`AAGUCCUGUGCUACACAUCGUAUGUACCGAAUCGGGAAAAAAAGGGAGGGAAAGGGAAAGUAUUAUGUUACGCCGUUCGGAUCUGCACUU` gave a log2 enrichment of 0.233.
`UGGGAGGUGGAUUUUGUUUAUUUUUUUAGCUCAUUUCCAGGGGUGGGAAUUUUUUUUUAAUAUGUGUCAUGAAUAAAGUUGUUUUUGAAA` has a log2 enrichment of -0.488.
For `ACCAUGCAGGUGGGCAUCUUUGGGAAGUGGGGCAAGGGGGGGAUAGGGAGGGGGGUAACACUUUGGGAACAGGUGGGCCCAGGUCGUUUC`, the log2 enrichment was 1.14.
With `CCUGUGCUACACAUCGUAUGUACCGAAUCGGGUUUUUUUGGGUUUUUUUGGUUUUUUUGGGAAAGUAUUAUGUUACGCCGUUCGGAUCUG` the log2 enrichment was -0.994.
`GCCACCAUGCCCACCUAGUUUUUGCAUUUUUAGUGGAGGUGUGGUUUCACUGUGUUGGCCAGGCUGGUCUCUUAACUCCUGACCUCAGGU` gave a log2 enrichment of -0.0601.
The log2 enrichment of `ACCAUGCAGGUGGGCAUCUUUGGGAAGUGGGGCAAGGGGGGGAUAGGGAGGGGGGUAACACUUUGGGAACAGGAGGUCCCAGGUCGUUUC` is reported as 0.806.
With `GCAGGAAGUAAAAACAAAUGGAAAUGCUUCGGAUAGUGGCAGGGGUGGGGUUUGCUAAGGAAAGGGUGGGAUGGGAGUGGGUAAAGAGUU` the log2 enrichment was 0.776.
For `UCCUGUGCUACACAUCGUAUGUACCGAAUCGGGAAAAAGGGAAAAAGGGUUUUUUUGGGAAAGUAUUAUGUUACGCCGUUCGGAUCUGCA`, the log2 enrichment was -0.501.

Series 4 — method: aptamer microarray, sandwich; form: DNA with 2'F-ANA; matrix: in vitro; concentration: 200 nM; together with: Cy3 exosite-II aptamer, 400 nM; reading: higher = stronger binding; strand: GGTTGGTGTGGTTGG
Target: Prothrombin, mature alpha-thrombin (F2, Homo sapiens, UniProt P00734)
Setting: whole 15-mer aptamer, many near background
Under “mean fluorescence intensity”, `2'F-ANA at 1 2 3 4 7 10 11 14` is recorded as 49 a.u.
`2'F-ANA at 1 2 4 6 8 9 10 12 13`: “mean fluorescence intensity” 76.5 a.u.
For `2'F-ANA at 2 4 6 10 11 12 13 14 15`, “mean fluorescence intensity” read 91.6 a.u.
`2'F-ANA at 4 7 8 10 14 15`: “mean fluorescence intensity” 67.5 a.u.
Under “mean fluorescence intensity”, `2'F-ANA at 2 4 6 7 10 11 15` is recorded as 73.1 a.u.
For `2'F-ANA at 1 2 4 6 7 11 12`, “mean fluorescence intensity” read 183 a.u.
`2'F-ANA at 2 4 6 7 9 10 12 13 15` — result for “mean fluorescence intensity”: 80.6 a.u.
`2'F-ANA at 1 3 4 7 8 9 10 12 15` — result for “mean fluorescence intensity”: 87.7 a.u.

Repeated from above (series 2):
The remaining activity was 73.4% (FLT1 (Homo sapiens, UniProt P17948)).
The remaining activity was 88.6% (CLK2 (Homo sapiens, UniProt P49760)).
For EPHA6 (Homo sapiens, UniProt Q9UF33): remaining activity read 89.2%.
For CLK1 (Homo sapiens, UniProt P49759): remaining activity read 97.2%.
CAMKK1 (Homo sapiens, UniProt Q8N5S9) — remaining activity: 69.6%.
For Cyclin-dependent kinase 2, with cyclin E (CDK2, Homo sapiens, UniProt P24941): remaining activity read 96%.
For CAMK1 (Homo sapiens, UniProt Q14012): remaining activity read 98.4%.
